Measured values gathered from unrelated publications.
Numbered parts are unrelated; each lists some results of a single study.

Block 1 — method: protein binding microarray; form: double-stranded DNA, one strand shown; matrix: in vitro; concentration: not given; baseline: not given; direction: higher = stronger binding
Target: Histone acetyltransferase KAT6A, winged helix 1, GST fusion (KAT6A, Homo sapiens, UniProt Q92794, residues 1-85)
Notes: 8-mer, flanks averaged, mean of 2 arrays, mostly near background
Residues (chain): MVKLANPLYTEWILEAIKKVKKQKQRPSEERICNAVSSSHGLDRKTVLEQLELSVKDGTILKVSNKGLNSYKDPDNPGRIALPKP
Sequence | E-score
AAGGGTGC | -0.067
AGGACGAT | -0.0612
GTATGGAC | -0.0196
CGTTTTTA | 0.0985
TACTTACA | -0.0818
AATCACAC | -0.173
CACTTACG | 0.033
ATTTGCTA | -0.218
ACTTGACG | 0.0627
GAAACTCC | -0.0234
CTCTGAGC | -0.153
GCAAGACA | 0.0789
CCAAGGCA | -0.171
AGCATCAA | -0.183
ATCCACAG | -0.111
AGGAAAAG | -0.1
ATGCGGAC | 0.236
GCGCGTCC | 0.392
CCCATTAC | -0.0642

Block 2 — method: RNA Bind-n-Seq; form: RNA; matrix: in vitro; concentration: 200 nM; notes: whole 134-nt RNA, ends assumed; together with: 150 mM LiCl; baseline: input library; direction: higher = stronger binding; library: 7-deaza-guanosine replaces G
Target: Ras GTPase-activating protein-binding protein 1, full length (G3BP1, Homo sapiens, UniProt Q13283)
UniProt Q13283, sequence (whole entry, looked up): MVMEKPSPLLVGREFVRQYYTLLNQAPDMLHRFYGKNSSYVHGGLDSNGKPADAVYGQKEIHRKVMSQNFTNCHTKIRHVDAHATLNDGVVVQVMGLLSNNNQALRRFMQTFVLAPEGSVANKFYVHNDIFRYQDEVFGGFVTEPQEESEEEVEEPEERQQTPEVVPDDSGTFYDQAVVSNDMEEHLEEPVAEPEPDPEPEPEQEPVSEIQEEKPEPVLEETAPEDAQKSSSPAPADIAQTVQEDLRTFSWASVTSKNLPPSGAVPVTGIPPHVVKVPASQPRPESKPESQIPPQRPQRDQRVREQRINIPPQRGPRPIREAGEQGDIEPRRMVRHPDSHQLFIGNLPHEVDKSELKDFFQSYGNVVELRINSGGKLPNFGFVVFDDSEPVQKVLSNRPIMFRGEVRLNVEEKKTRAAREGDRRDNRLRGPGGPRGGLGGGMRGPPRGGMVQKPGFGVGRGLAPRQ
All sequences stand within: GGGAGUUCUACAGUCCGACGAUC … UGGAAUUCUCGGGUGUCAAGG
Sequence | log2 enrichment
CAAGUCCUGUGCUACACAUCGUAUGUACCGAAUCGGAAAAGGAAAAGGAAAAGGGGAAAGUAUUAUGUUACGCCGUUCGGAUCUGCACUU | -0.91
UCCUGUGCUACACAUCGUAUGUACCGAAUCGGGAAAAAAGGGGAAAAAAGGAAAAAAGGGAAAGUAUUAUGUUACGCCGUUCGGAUCUGC | 0.14
ACCAUGCAGGUGGGCAUCUUUGGGAAGUGGGGCAAGGGGGGGAUAAAGAGGGGGGUAACACUUUGGGAACAGGUGGUCCCAGGUCGUUUC | 0.311
UCCUGUGCUACACAUCGUAUGUACCGAAUCGGGUUUGGGUUUUUUUGGGAAAAAAAGGGAAAGUAUUAUGUUACGCCGUUCGGAUCUGCA | -0.285
AAAUAUCAGUGAUCAUCGCAAGGAAGGAGGCAGACAAGAGUAAGGCACACCUGACUCUUAGGACUAGCAGUCAGAACCAGGAGGAAAGGU | -0.296
CUGUGCUACACAUCGUAUGUACCGAAUCGGGGUUUUUUUGGGGAAAAAGGGGAAAAAGGGGAAAGUAUUAUGUUACGCCGUUCGGAUCUG | -0.513
UUUUCUGUUUGAAACAGUUUUAUACUUUCUGAUAUAGUACUUGAAAUUCUUACCAGAAAAUUACUUUGGAGUUUUGAAGCCUUUAUUAAU | 0.0118
CAAGUCCUGUGCUACACAUCGUAUGUACCGAAUCGGAAAAAGGAGGUUUUUUUGGAAAGUAUUAUGUUACGCCGUUCGGAUCUGCACUUC | -0.916
UAACUUUAGAGGAGGAUCUGAUGGAUAUGGCAGUGGACGUGGCUUUGGGGAUGGCUAUAAUGGGUAUGGAGGAGGACCUGGAGGUGGCAA | -0.227
AGUCCUGUGCUACACAUCGUAUGUACCGAAUCAAAGUGUGUGUGUGUGUGUGUGUAAAAAAGUAUUAUGUUACGCCGUUCGGAUCUGCAC | -0.847
UGGGCGGCUGCGAGAUGAGAACGGACGACCCUACUCGCCCAGUCAGUAUGCGCUCCAGUACGCCGGGGACGGCAGUGUCCUCCUCAUCCC | -0.762

Block 3 — method: RNA Bind-n-Seq; form: RNA; matrix: in vitro; concentration: not given; notes: RNA with constant flanks, ends assumed; baseline: input RNA pool; direction: higher = stronger binding
Target: RING finger protein unkempt homolog, zinc fingers 1-6, GST-SBP tag (UNK, Homo sapiens, UniProt Q9C0B0, residues 30-357)
All sequences stand within: GGGAGUUCUACAGUCCGACGAUC … CAACAGAGGAUUGAGCAUCA
Target sequence (chain): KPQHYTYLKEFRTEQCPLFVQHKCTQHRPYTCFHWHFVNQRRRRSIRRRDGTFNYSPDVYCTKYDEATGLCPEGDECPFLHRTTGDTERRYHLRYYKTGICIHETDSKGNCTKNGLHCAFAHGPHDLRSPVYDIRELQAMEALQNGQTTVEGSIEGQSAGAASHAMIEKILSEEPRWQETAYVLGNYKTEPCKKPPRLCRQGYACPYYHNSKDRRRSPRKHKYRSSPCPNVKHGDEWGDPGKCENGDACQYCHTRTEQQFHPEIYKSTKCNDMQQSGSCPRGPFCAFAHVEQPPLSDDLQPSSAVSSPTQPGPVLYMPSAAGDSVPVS
Sequence | bound/input enrichment [ratio]
CAUUAUGACCGGGCUCAUAUUGCUCAACUGUGUGAAAAGGCUGGCCUACUGCAGCGUGCAUCCGAACAUUUCACUGAUUUAUAUGAUAUAAAACGUGCAGUGGUUCACACCCAUCUUCUU | 0.118
ACCACUCAACAAACAGUCCCCACCACACCUAUCUCCUUAGGCAAGACUUUGCCUCUCUCCCCGUCCUGAGUAUAAAUCCUGUGCAUAGAUUCCUCUAGAAAGGCAUCAAAAGGCUCAACA | 1.02
CUCGGCACUGGUACCCUUUACAUCGCUGAGAGCCGCCUGUCUUGGUUAGAUGGCUCUGGAUCCGGAUUCUCACUGGAAUACCCCACCAUUAGUUUACAUGCAUUAUCCAGGGACCGAAGU | 3.66
UCCACGUCAGAAGACAAUCGCCCUUUAACUGGACUUGCAGCUGCAAUUGCGGGAGCAAAACUCCGGAAAGUGUCCCGGGUGGAGGAUGGCUCUUUCCCAGGUGGAGGGAAUACUGGGAGU | 0.165
AGAAGGGUGUUUGCAGUUUUGCAGGCCUCUGUGGCCUGGGCUUUCUAUGCUGCGAAUAUUACCCGAAGCUGGAUUCCUUUAAGGAGACUUGUAGUGAAAAUGUUUGUCUGGAUGUUCCUC | 0.191
AGCGGAGGCUCAGGAGCCAAGCCCUCAGACGCAGCAUCAGAAGCUGCUCGCCCAGCUACCCGUACUUUGAAUCGCUUCUCAGCCCUUCAACAAGCGGUACCCACAGAAAGCACAGAUAAU | 0.13
CUAUACCUGAAACUCACAUUUGACCUCAUAGAGAAAGGCUACCUAGUGCUAAAGAGUUCCCGCUACAAAGUCGUUCCUGUUUCGCUCUCUGAGGUUUAUUUACUCCAGUGCAAUAUGAAG | 0.281
AAAUGAAGGUACAUAUACAUGAUCUGAGUAACCAUUUCCUCUGUGGCCAAUCUGUAUGCUUUCCGAAGUUUACAAAACUGCUUUGGUUUUUGUCUGUAACCAUCUCUGUCAUCCCAAUAA | 0.362
AGGGAAGACUUGAUCUGUGGACUUUUGAAAGCAACUUGAGGAAAAACACAUAACAGAAUCUACCGGUGUGGACAAUAUGUGAUAUUGCUAAAUAAUGUCAAGUAGGAAAUAAAAGAGACU | 1.3
AUGAUAAUGGCAUCAGCUGCUAAGGAAUUUAAAAUGGACAACUUUUCACCUAAAGCUGGCACCCGCAAAUUGCAACAGACAGUACCAGCUGAUGCAUCUCCUGAUUCUAAGUGUCCUAUA | 0.0972
CUUCAGCUGGUGCUUGUCUGGCUGGGUGAAGUGCUAGGUGUCAUUGGGGACUGUCCAGAGCCCGUUCAGCGCUCCUUCCUGGUGGCUAGUGUUCUGCCUGGCCCCGAUGGCAACAUUAAC | 0.0896

Block 4 — method: protein-binding microarray; form: double-stranded DNA, one strand shown; matrix: in vitro; concentration: 250 nM; notes: 60-bp whole probe; together with: salmon DNA 0.4 mg/ml; baseline: random background probes; direction: higher = stronger binding; all sequences stand within: GCCTAGCAC … GTCTTGATTCGCTTGACGCTGCTG
Target: Interferon regulatory factor 7, full length, phosphomimetic (IRF7, Homo sapiens, UniProt Q92985, residues 1-503, S101K/S471D/S472D/S475D/S476D/S477D/S483D/S484D/S487D)
Residues (chain): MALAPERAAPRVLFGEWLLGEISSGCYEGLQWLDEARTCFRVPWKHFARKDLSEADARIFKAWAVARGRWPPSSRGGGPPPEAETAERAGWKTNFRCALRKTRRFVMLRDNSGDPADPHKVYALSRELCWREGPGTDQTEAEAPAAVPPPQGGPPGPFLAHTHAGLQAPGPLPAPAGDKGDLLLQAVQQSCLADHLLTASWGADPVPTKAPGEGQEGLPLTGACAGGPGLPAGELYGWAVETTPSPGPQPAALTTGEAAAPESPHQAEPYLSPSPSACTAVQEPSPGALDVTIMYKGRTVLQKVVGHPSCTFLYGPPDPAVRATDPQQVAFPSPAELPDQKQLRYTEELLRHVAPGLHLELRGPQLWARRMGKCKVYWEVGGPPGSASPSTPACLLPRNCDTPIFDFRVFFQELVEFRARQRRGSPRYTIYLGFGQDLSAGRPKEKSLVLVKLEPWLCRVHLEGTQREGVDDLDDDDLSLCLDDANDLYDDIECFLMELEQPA
Sequence | log fluorescence [z-score]
GACGATATCAGTACCGAGACGTGCTAG | 0.0777
TGAGCTTACAATATAAAAGGGTGCTAG | -0.245
GACGGTTTCCTCTCCCTGACGTGCTAG | 1.37
TGAAATTTTAATAACACAGAGTGCTAG | -0.283
GACGGTCTCGGGATCGGGACGTGCTAG | 1.02
GAAGGACTGGACACTGGGGACGTGCTA | -0.757
TCACACATATAATTTTGTACTGTGCTA | 0.537
GACGATCTTAGACTGGAGACGTGCTAG | 0.0763
CTAGAACTGGGGTTTCGATTAGTGCTA | 5.95
ATAACCTTGAACTTCGGCCTGTGCTAG | -0.264
TTAGATATCGGGTATGGATTAGTGCTA | -0.0279
TTAGGACTGGGGAGTGGGTTAGTGCTA | -0.388
GAATGTAACTCCTATCCAAGTGTGCTA | -0.011
TTAGATATCATTATCGATTAGTGCTAG | 0.317
TCAAATATATATATTGTACTGTGCTAG | 0.536
TTAGTTTTCGGGACTGGGTTAGTGCTA | 1.19
GACGGTTTCGGGACTGGGGCCGTGCTA | 3.39
GACTGTATCGGGTATCGGGACGTGCTA | -0.0412
GACGAAATCGGGTTTCGAGACGTGCTA | 3.28
TTAGATCTCAGTATCGATTTGTGCTAG | 3.11
TTAGGTTTCCGTTTCGGTTAGTGCTAG | 10
TTAGGTCACGGACTGGGTTAGTGCTAG | 0.0373
TATGTTGTCCAGGCTGGTCTCGTGCTA | 0.484
GACGGTACCGACTATCGGGACGTGCTA | -0.221
TCATTTTTTTGTATTTTACTGTGCTAG | 0.746
